Published values of several laboratories.
Parts stem from different laboratories: compare values within a part only.

Sample 1 — technique: Spec-seq; form: double-stranded DNA, one strand shown; medium: in vitro; tested at: not given; setting: whole probe, mean of replicates; relative to: not given; reading: lower = stronger binding; all sequences stand within: GAGTCGTCTCGTCAGCAC … CCGTAGAGCACTCAGGTC
Target: POU, POU domain (Salpingoeca helianthica)
Residues (chain): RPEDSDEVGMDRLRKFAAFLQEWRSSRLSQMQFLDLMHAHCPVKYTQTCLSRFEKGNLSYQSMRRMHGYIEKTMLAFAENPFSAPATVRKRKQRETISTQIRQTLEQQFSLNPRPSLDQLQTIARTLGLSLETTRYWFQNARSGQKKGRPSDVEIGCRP
`ATGCGCGG`: “relative binding energy” 1.41 ln ratio.
`ATTCGTAT`: “relative binding energy” 1.04 ln ratio.
For `CAGGTAAT`, “relative binding energy” read 0.595 ln ratio.
`ATGCACTC`: “relative binding energy” 1.19 ln ratio.
`CACATAAT` — result for “relative binding energy”: 0.56 ln ratio.
For `CTATTAAT`, “relative binding energy” read -0.433 ln ratio.
`ATGCATTT` — result for “relative binding energy”: 1.23 ln ratio.
`ATCTGTAT` — result for “relative binding energy”: 1.08 ln ratio.
`ATTCCCAT`: “relative binding energy” 0.972 ln ratio.
Under “relative binding energy”, `TCTCTAAT` is recorded as 0.639 ln ratio.
Under “relative binding energy”, `GGGTTAAT` is recorded as -0.00767 ln ratio.
`ATGCCATA`: “relative binding energy” 1.34 ln ratio.
For `ATACTTAT`, “relative binding energy” read 0.714 ln ratio.
Under “relative binding energy”, `CTAATAAT` is recorded as -0.641 ln ratio.
Under “relative binding energy”, `ATGCATTA` is recorded as 0.879 ln ratio.
`CTCGTAAT` — result for “relative binding energy”: -0.73 ln ratio.
Under “relative binding energy”, `CGAGTAAT` is recorded as 0.182 ln ratio.
Under “relative binding energy”, `ATGCTATT` is recorded as 1.11 ln ratio.
`ATGCACGT` — result for “relative binding energy”: 1.25 ln ratio.
Under “relative binding energy”, `ATGCCAGT` is recorded as 1.36 ln ratio.
`ATGCGCAA` — result for “relative binding energy”: 1.15 ln ratio.
For `ATGCGGAT`, “relative binding energy” read 1.45 ln ratio.
`ATAATTAT`: “relative binding energy” -1.5 ln ratio.
For `TGTCTAAT`, “relative binding energy” read 0.797 ln ratio.
Under “relative binding energy”, `ATTAGAAT` is recorded as 0.205 ln ratio.

Sample 2 — technique: protein-binding microarray; form: double-stranded DNA, one strand shown; medium: in vitro; tested at: 250 nM; setting: 60-bp whole probe; together with: salmon DNA 0.4 mg/ml; relative to: random background probes; reading: higher = stronger binding; all sequences stand within: GCCTAGCAC … GTCTTGATTCGCTTGACGCTGCTG
Target: Interferon regulatory factor 5, full length, phosphomimetic (IRF5, Homo sapiens, UniProt Q13568-2, residues 1-514, K96S/S451D/S453D/S456D/S462D)
The log fluorescence of `TTAGGTATCCTTTTCCCTTAGTGCTAG` is reported as 0.719 z-score.
The log fluorescence of `GACGAACTGAGGTATCGAGACGTGCTA` is reported as 0.282 z-score.
With `TTAGGTCTCGCTATCGGTTAGTGCTAG` the log fluorescence was 4.86 z-score.
`TTAGGACTGGGCCTCGGTTAGTGCTAG` has a log fluorescence of -0.569 z-score.
`TCACTCTTCTTGCATCTGACTGTGCTA` has a log fluorescence of 0.886 z-score.
For `GACGATTTCGGGGATCGAGACGTGCTA`, the log fluorescence was 2.02 z-score.
With `TCAACTTTCCCCTTCCTACTGTGCTAG` the log fluorescence was 1.5 z-score.
The log fluorescence of `GACGGTTTCCTCATCCTGACGTGCTAG` is reported as 0.58 z-score.
The log fluorescence of `AGAAACTTTTTTCTGATTGAGTGCTAG` is reported as 2.41 z-score.
The log fluorescence of `GTCGGTTTCCTTATCCTGACGTGCTAG` is reported as 1.24 z-score.
For `ACCCATTGAGATTTTCATTATGTGCTA`, the log fluorescence was 0.878 z-score.
For `TCACTTTTTGCACTCTCACTGTGCTAG`, the log fluorescence was 1.2 z-score.
The log fluorescence of `TCACTTTCCTTTATGTCACTGTGCTAG` is reported as 2.6 z-score.
`TTAGGACTGGGTCTCGGTTGGTGCTAG` gave a log fluorescence of -0.303 z-score.
The log fluorescence of `GACGGTTTCCTTTTCCTGGCGTGCTAG` is reported as 1.12 z-score.
For `GACGATTTAAGTATCGAGACGTGCTAG`, the log fluorescence was 2.24 z-score.
The log fluorescence of `TTAGGTTTCCTACTGCTTTGGTGCTAG` is reported as 0.236 z-score.
For `GACGGACGGGGGTATCGGGACGTGCTA`, the log fluorescence was 1.24 z-score.
With `GACGGGCTCCTTATCCTGACGTGCTAG` the log fluorescence was -0.525 z-score.
`TTAGATATCGGGTTTCGTTTAGTGCTA` gave a log fluorescence of 5.81 z-score.
With `TTAGGTATCCTTCTCCGTTAGTGCTAG` the log fluorescence was 0.252 z-score.
For `TCATTTTTCTCACCACATACTGTGCTA`, the log fluorescence was 1.14 z-score.
`TGGGGGGATCAGGGAAACAGGTGCTAG` has a log fluorescence of 1.69 z-score.
With `TCATTTTTATTTTCTGAACTGTGCTAG` the log fluorescence was 2.17 z-score.
With `TTAGGTTTCGGTTTTCGGTTAGTGCTA` the log fluorescence was 10.4 z-score.

Sample 3 — technique: RNA Bind-n-Seq; form: RNA; medium: in vitro; tested at: 365 nM; relative to: no-protein control; reading: higher = stronger binding
Target: RNA binding protein fox-1 homolog 2, RRM domain, GST-SBP tag (RBFOX2, Homo sapiens, UniProt O43251-10, residues 100-194)
Setting: natural RNA segment, single round, ends assumed
Target sequence (chain): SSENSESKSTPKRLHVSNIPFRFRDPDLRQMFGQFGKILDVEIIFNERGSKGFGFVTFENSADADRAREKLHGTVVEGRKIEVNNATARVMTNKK
Under “RBNS enrichment (R)”, `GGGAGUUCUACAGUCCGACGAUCUGUGCGUGUGUGUGCGCGUGUGUGUUAUUGUUUAAAUUGUAUUCACAGUGUUGUUUGCCUUGCUCACUUGUAACCCCCUCCUCGGAUCUAGGAGAAUGGGAGGAGGGUCUUGGAAUUCUCGGGUGCCAA` is recorded as 3.36.
`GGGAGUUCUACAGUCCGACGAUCUGCAAGAAGAAUCUGGGCUGAGCUGCUUCAAACAAGGAGGCUUUGCUCUGGAGUGAGGAGGGAGUGACCCCUCAGCCUGUGUAGGGUCCAGUUUUAUGCUCUCGGAAGGCUGGAAUUCUCGGGUGCCAA` — result for “RBNS enrichment (R)”: 0.489.
Under “RBNS enrichment (R)”, `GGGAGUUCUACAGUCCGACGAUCAAUGGAUGCAUCAAGUUUCUAAAUUUUAUUUCCUGCCUAAAGAAACCAAAUUGUCCCUCAGCAUCCUUGUCUCCAGCCCUGAGGAAACACCUAAAGAGAAGCAAUGGCUCUGGAAUUCUCGGGUGCCAA` is recorded as 0.453.
`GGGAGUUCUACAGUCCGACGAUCAAUCAUAAGGAUUUUUAUUGCCGCUCCAUUCUUACUACUAUUCAUGAUUCAAACAUCUACCCCUGUUCUGAAUCAGGAUGUUGACACUUCUUGGUUAUUUUCAGAUGAACUGGAAUUCUCGGGUGCCAA`: “RBNS enrichment (R)” 0.384.
`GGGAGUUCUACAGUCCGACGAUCUGUAGCUGGGAAGCAUCUUUUAGCCGACUAUACAUCACUUUGUUUUGAAACAAGGAAGCUGCGCUCUGUCAUGUGCUGCCUUUUUUAUUUAUUCAGGCUAAACCUACAAUUGGAAUUCUCGGGUGCCAA` — result for “RBNS enrichment (R)”: 1.88.
`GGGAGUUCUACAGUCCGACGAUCUAAAGCAGGCUGAUCGGGCAAUGGGAGGUGGCCAGGCCUGCCAGCCCCUCGGCUCUGCCGCGGUGGGCCGAGGCCGCUGUUGGGGGUUUCCCUGUGUGGACCAUGGGGAUUGGAAUUCUCGGGUGCCAA` — result for “RBNS enrichment (R)”: 0.453.
`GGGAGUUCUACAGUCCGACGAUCUCAGGCCAGAGGACAACAGGCUGGCGUUUUGUUGGGAACUGAAGAGGAAUCUGUUGAACACAGCGACCAGAUGACCUUCCAUUUCACCGGCGGCAGCAGUUUCAGCGUGCUGGAAUUCUCGGGUGCCAA` — result for “RBNS enrichment (R)”: 0.182.
Under “RBNS enrichment (R)”, `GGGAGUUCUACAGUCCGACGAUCCCAAGAUCAUGCCACUGCACUCCAGCCUGGGCAACACAGCGAGACUCCGUCUCAAAAAGAAAAAGUUUGGAUCAGGCAGGGUGGCUCACACCUGUAAUCCCUGCACUUUGUGGAAUUCUCGGGUGCCAA` is recorded as 0.699.
`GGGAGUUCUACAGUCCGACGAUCCCAACACUACUGGCUCUUGCUUUUCUCAAUCCCCAAAGCUUCCCUUGUGACUUCUUAAGGCUCUGUAUGAAUUUGGAAGUAUAUGUUGAUAUUGCCAUGCAUGGUCAUUCUGGAAUUCUCGGGUGCCAA`: “RBNS enrichment (R)” 4.73.
`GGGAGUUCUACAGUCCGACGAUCGCCUCAAGACUCUUUUGCCUCAGUCAAGACUGUUAUAUGUAGCUGUUGUCUUUCCUGUCCCAACCUACACGGGUCUCUGUAACAUUCCACUAUUCAAACUUCCAAGGAGUUGGAAUUCUCGGGUGCCAA`: “RBNS enrichment (R)” 0.229.
For `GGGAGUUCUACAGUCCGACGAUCGUUAUGUAAUAUUCUUUGGCUACGCAUCUGUCCAGCAUCUUAUUAACCAUAAUACUGUGAUCAUUAUUUGGAAAUAUGUCCUAUGGAAAGAAUAAAAGCAUGUACUUCACUGGAAUUCUCGGGUGCCAA`, “RBNS enrichment (R)” read 7.15.
For `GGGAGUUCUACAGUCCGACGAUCUGAUUAAGCCAUGCCAGAUGGUCUUUGGUGCACACAGUUAUUUAAGAAUCCACUUCCACAGGUGGCUGCCCUUGUAAGGAAGAAUGCAUCCCUAAAUGUGGCCACCAGAGUGGAAUUCUCGGGUGCCAA`, “RBNS enrichment (R)” read 2.15.

Sample 4 — technique: RNAcompete; form: RNA; medium: in vitro; tested at: 20 nM; setting: 7-mer, probes averaged, single round; relative to: mean of 7-mers; reading: higher = stronger binding
Target: PABPC1L2, full length, GST fusion (mouse, UniProt A0ABA7IW68)
Residues (chain): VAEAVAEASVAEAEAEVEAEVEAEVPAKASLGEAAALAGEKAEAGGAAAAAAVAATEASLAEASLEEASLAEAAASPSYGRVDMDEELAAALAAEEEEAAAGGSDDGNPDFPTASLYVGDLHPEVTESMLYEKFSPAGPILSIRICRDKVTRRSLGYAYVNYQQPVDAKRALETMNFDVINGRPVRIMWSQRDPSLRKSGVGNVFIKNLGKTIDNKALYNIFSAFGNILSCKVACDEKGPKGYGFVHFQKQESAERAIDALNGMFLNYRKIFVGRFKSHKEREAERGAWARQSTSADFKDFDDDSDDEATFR
For `AACCAGG`, the 7-mer Z-score was 0.144.
The 7-mer Z-score of `GAUUUAG` is reported as 0.222.
With `CUCGUUG` the 7-mer Z-score was -0.44.
For `ACUCAGU`, the 7-mer Z-score was -0.22.
For `GUAAGUA`, the 7-mer Z-score was -0.13.
For `AAAACGG`, the 7-mer Z-score was 4.15.
`CCGGCUU` has a 7-mer Z-score of -0.322.
`UCCCGCG` gave a 7-mer Z-score of -0.353.
`CCAGUUG` gave a 7-mer Z-score of -0.209.
With `ACUCAAC` the 7-mer Z-score was -0.05.
With `AGGACGC` the 7-mer Z-score was 0.164.
For `CCCAGCA`, the 7-mer Z-score was -0.26.
With `CCGACCC` the 7-mer Z-score was -0.24.
`UAUUAAG` has a 7-mer Z-score of 0.017.
For `UCACGGG`, the 7-mer Z-score was 0.104.
`CACCGUC` has a 7-mer Z-score of -0.322.
For `UAAUUCU`, the 7-mer Z-score was -0.184.
`GCGUUUA` has a 7-mer Z-score of -0.28.
`CGGGUGA` has a 7-mer Z-score of -0.021.
The 7-mer Z-score of `UUCAUGU` is reported as -0.353.
With `UGCCGUC` the 7-mer Z-score was -0.476.
With `ACAUACG` the 7-mer Z-score was -0.0138.
For `GCGGGCA`, the 7-mer Z-score was 0.316.
`UCGCCAG` has a 7-mer Z-score of -0.378.
`GGCCUCA` gave a 7-mer Z-score of -0.173.

Some of these lines once more (sample 2):
`TCACTCTTCTTGCATCTGACTGTGCTA` has a log fluorescence of 0.886 z-score.
With `TCATTTTTATTTTCTGAACTGTGCTAG` the log fluorescence was 2.17 z-score.
The log fluorescence of `GTCGGTTTCCTTATCCTGACGTGCTAG` is reported as 1.24 z-score.
With `TTAGGTCTCGCTATCGGTTAGTGCTAG` the log fluorescence was 4.86 z-score.
With `GACGGGCTCCTTATCCTGACGTGCTAG` the log fluorescence was -0.525 z-score.
